Results from different studies.
Compare with care: the assays were run in different laboratories. Values joined by “and” are separate records of one study, mostly repeats; a detail may differ. ± marks the error that the study gave.
USP13 ZnF-UBD domain: Ubiquitin carboxyl-terminal hydrolase 13, ZnF-UBD domain (USP13, Homo sapiens, UniProt Q92995)
Chain of UniProt Q92995 (whole entry, looked up): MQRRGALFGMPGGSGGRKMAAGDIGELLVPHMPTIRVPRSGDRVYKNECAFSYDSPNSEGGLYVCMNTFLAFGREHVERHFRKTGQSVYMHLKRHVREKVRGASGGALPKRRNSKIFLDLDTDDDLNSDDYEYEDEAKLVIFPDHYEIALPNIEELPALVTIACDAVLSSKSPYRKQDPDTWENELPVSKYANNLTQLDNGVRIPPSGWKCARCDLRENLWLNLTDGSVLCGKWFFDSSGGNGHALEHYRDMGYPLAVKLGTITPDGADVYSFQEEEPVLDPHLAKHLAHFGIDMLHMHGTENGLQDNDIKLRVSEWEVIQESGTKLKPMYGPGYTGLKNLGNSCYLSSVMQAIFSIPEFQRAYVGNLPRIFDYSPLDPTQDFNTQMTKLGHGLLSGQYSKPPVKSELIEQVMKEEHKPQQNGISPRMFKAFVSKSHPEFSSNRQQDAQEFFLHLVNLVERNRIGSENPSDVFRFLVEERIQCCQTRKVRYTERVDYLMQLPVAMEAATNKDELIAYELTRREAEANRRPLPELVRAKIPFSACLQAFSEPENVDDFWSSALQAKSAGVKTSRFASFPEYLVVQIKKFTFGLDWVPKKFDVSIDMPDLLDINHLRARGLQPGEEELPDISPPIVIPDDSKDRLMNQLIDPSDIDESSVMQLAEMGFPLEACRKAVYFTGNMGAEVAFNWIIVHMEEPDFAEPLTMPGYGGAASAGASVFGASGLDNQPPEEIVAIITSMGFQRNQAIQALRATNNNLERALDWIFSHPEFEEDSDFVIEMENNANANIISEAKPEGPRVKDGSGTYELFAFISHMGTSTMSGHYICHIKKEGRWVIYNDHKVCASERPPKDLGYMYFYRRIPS
Chain of UniProt O14965 (whole entry, looked up): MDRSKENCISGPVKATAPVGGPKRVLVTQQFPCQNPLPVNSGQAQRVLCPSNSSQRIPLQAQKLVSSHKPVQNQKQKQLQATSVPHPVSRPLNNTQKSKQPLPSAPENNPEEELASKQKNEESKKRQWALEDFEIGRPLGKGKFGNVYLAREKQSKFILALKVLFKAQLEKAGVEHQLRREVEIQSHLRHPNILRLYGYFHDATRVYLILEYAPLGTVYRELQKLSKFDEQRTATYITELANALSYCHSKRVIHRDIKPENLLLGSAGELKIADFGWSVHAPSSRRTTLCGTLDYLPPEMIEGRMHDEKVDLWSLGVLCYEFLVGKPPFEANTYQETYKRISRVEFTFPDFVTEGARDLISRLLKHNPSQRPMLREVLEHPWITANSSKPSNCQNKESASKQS

Structure (SMILES) | target or system | test | test system | conditions | how to read | quantity | result
c1ccc(CSc2nc3ccc(-c4ccccc4)cc3cc2CNCc2ccc(CN3CCCC3)cc2)cc1 | electron transport chain | proton pumping, ACMA quenching | Pseudomonas aeruginosa inverted membrane vesicles | 2 µg/mL, added: NADH | – | inhibition | 12%
CC(C)c1cn(C(C)C)c(CN2CCN(Cc3nc(C(C)C)cn3C(C)C)CCN(Cc3nc(C(C)C)cn3C(C)C)CC2)n1 | Zn2+ | potentiometric titration | – | pH 7.4, ligand and metal 2 mM | – | pZn | > 12.4
O=C(O)Cn1cnc2ccccc2c1=O | USP13 ZnF-UBD domain | – | – | – | – | Kd | 860 µM
CC(CN(C)C)CN1c2ccccc2CCc2ccccc21 (stereo not shown) | H+/organic cation antiporter | cell uptake | hCMEC/D3 | – | – | Vmax | 2120 pmol/min/mg protein
O=C(O)CC1Oc2ccccc2NC1=O (stereo not shown) | USP13 ZnF-UBD domain | – | – | – | – | Kd | 306 µM
CCCCN1CCCC[C@H]1C(=O)Nc1c(C)cccc1C | H+/organic cation antiporter | cell uptake | hCMEC/D3 | – | – | Km | 96.1 µM
COC(=O)C[C@@H](NC(=O)[C@@H](Cc1ccccc1)NC(=O)C[C@@H](CC(C)C)NC(=O)[C@@H](CC(=O)OC)NC(=O)[C@@H](Cc1cccnc1)NC(=O)CCCCCNC(=O)CCCCCNC(=O)CCCc1cn(CCF)nn1)C(=O)COC(=O)c1ccc(C)s1 | caspase | enzyme activity | HeLa cells | 75 µM, 4 h, added: staurosporine 1 µM | – | inhibition | no effect
c1coc(-c2n[nH]cc2-c2ccnc3ccccc23)c1 | CDC15 (Candida albicans) | kinase binding, MIB/MS competition | Candida albicans lysate | 10 µM | reference: DMSO | log2 fold change | -0.09
CCN1CCC(CCNCc2cc3cc(-c4ccccc4)ccc3nc2SCc2ccccc2)CC1 | electron transport chain | proton pumping, ACMA quenching | Pseudomonas aeruginosa inverted membrane vesicles | 2 µg/mL, added: NADH | – | inhibition | 6%
CCCOC(C(=O)OC1CCN(C)CC1)(c1ccccc1)c1ccccc1 | H+/organic cation antiporter | cell uptake | hCMEC/D3 | – | – | Km | 12.3 µM
Oc1ccccc1-c1n[nH]cc1-c1ccnc2ccccc12 | DUN1 (Candida albicans) | kinase binding, MIB/MS competition | Candida albicans lysate | 10 µM | reference: DMSO | log2 fold change | 0.1
O=S(=O)(NCCNC/C=C/c1ccc(Br)cc1)c1cccc2cnccc12 | PKA | inhibitor | mouse zygotes | 20 µM, injection, hCG, 72 h post, early embryonic development | – | embryos arrested at zygote stage | 0%
CCCNC(C)C(=O)Nc1c(C)csc1C(=O)OC (stereo not shown) | H+/organic cation antiporter | cell uptake | hCMEC/D3 | – | – | Km | 94.3 µM
CC[S+]([O-])c1nc(-c2ccccc2)cc(C(F)(F)F)n1 (stereo not shown) | importin alpha/beta-1 | cMyc nuclear import, high content imaging | HeLa Kyoto reporter | 0.5 µM, 2 h | – | cells with nuclear reporter | 92.2% and 81.9% and 80.1% and 80.3%
CC(C)n1cc(C(C)(C)C)nc1CN1CCN(Cc2nc(C(C)(C)C)cn2C(C)C)CCN(Cc2nc(C(C)(C)C)cn2C(C)C)CC1 | Zn2+ | potentiometric titration | – | pH 7.4, ligand and metal 2 mM | – | pZn | 5.5
COc1nc(NCc2cn(-c3ccc(C(=O)Nc4ccc(C(F)(F)F)cc4)cc3)nn2)nc(OC)n1 | calf thymus DNA | DNA damage, Tb3+ fluorescence | – | 24 h | – | limit of detection | 1.87 nM
COC1=C(OC)C(=O)C(CC=C(C)C)=C(C)C1=O | FSP1 F354A mutant | substrate | – | added: 100 µM co-substrate | – | kcat | 10.1 ± 1.34 s⁻¹

Structure (SMILES) | target or system | test | test system | conditions | how to read | quantity | result
Brc1ccc2nc(SCc3ccccc3)c(CNCc3ccc(CN4CCCC4)cc3)cc2c1 | electron transport chain | proton pumping, ACMA quenching | Pseudomonas aeruginosa inverted membrane vesicles | 32 µg/mL, added: NADH | – | inhibition | 80%
C[C@@H]1CC[C@H]2[C@@H](/C1=C/C[C@H]1[C@]3(C)CCC(=O)C(C)(C)O[C@H]3CC[C@]1(C)O)C(C)(C)CC[C@]2(C)O | P-glycoprotein human | inhibitor | KB-C2 | 10 µM, 2 h, added: [3H]-paclitaxel | reference: untreated | intracellular paclitaxel accumulation | 2.36 fold
CCN(C)C(=O)Oc1cccc([C@H](C)N(C)C)c1 | H+/organic cation antiporter | cell uptake | hCMEC/D3 | – | – | Km | 91.7 µM
CC[C@@H]1[C@H](F)C(=O)N[C@@H]1COc1nccc2cc(C(N)=O)c(OC)cc12 | Aurora kinase A (AURKA, Homo sapiens, UniProt O14965) | ATP-site binding, ActivX KiNativ profiling | THP-1 cell lysate | Lys1 AurA probe site | – | IC50 | 3.4 µM
C[n+]1cccc2cc(C=NNC(=O)c3ccc4ccc5ccc(C(=O)NN=Cc6ccc7c(ccc[n+]7C)c6)nc5c4n3)ccc21.[I-].[I-] | telomeric G4 DNA hybrid-2 | FRET melting | – | 1 µM, DNA 0.2 µM, added: duplex DNA competitor 10 µM | – | ΔTm | 34.9 ± 0.6 °C
CCS(=O)(=O)c1nc(C2CC2)cc(C(F)(F)F)n1 | importin alpha/beta-1 | cMyc nuclear import, high content imaging | HeLa Kyoto reporter | 0.158 µM, 2 h | – | cells with nuclear reporter | 97.3% and 85.8% and 71.2% and 86.4%
Cc1cc(NS(=O)(=O)c2ccc(NC(=O)/C(C#N)=C/c3ccc(N4CCCCC4)cc3)cc2)no1 | calf thymus DNA | UV-vis titration | – | 30 µM, added: DNA 0 to 90 µM | – | hypochromism | ~39%
CC(C)C(=O)Oc1ccc(CO)cc1[C@H](CCN(C(C)C)C(C)C)c1ccccc1 | H+/organic cation antiporter | cell uptake | hCMEC/D3 | – | – | Vmax | 3980 pmol/min/mg protein
CN1CCN(CCNCc2cc3cc(-c4ccccc4)ccc3nc2SCc2ccccc2)CC1 | electron transport chain | proton pumping, ACMA quenching | Pseudomonas aeruginosa inverted membrane vesicles | 32 µg/mL, added: NADH | – | inhibition | 85%
CC(C)(c1cc(Br)c(O)c(Br)c1)c1cc(Br)c(O)c(Br)c1 | camel nanobody T2 | binding, competitive ELISA | – | concentration not given | – | cross-reactivity | < 0.1%
COc1cccc2c1C(=O)c1c(O)c3c(c(O)c1C2=O)C[C@@](O)(C(=O)CO)C[C@@H]3O[C@H]1C[C@H](N)[C@H](O)[C@H](C)O1 | calf thymus DNA | DNA damage, Tb3+ fluorescence | – | 24 h | – | limit of quantification | 2.56 nM
C[C@H]1C[C@@H](N2C(=N)N[C@](C)(c3cccc(Nc4ccc(C5CC5)nc4)c3Cl)CC2=O)CCO1 | human cardiac ion channels | ion current | – | panel other channels | – | IC50 | > 30 µM
CC(C)[C@H](NC(=O)[C@@H](NC(=O)CCCc1cn(CC(O)CN2CCN(CC(=O)O)CCN(CC(=O)O)CCN(CC(=O)O)CC2)nn1)[C@@H](C)O)C(=O)N[C@@H](CCCNC(=N)N)C(=O)N[C@H](C(=O)N[C@@H](CO)C(=O)N[C@@H](C)C(=O)N[C@@H](CC(=O)O)C(=O)O)[C@@H](C)O (stereo partly shown) | – | – | healthy male humans, plasma | intravenous bolus, 0.08 mmol/kg | – | Cmax | 1680 ± 630 µg/mL
CCCCNc1ccc(C(=O)OCCN(C)C)cc1 | H+/organic cation antiporter | cell uptake | hCMEC/D3 | – | – | Vmax | 2430 pmol/min/mg protein
Cn1cc(-c2ccc(-c3cncc(Cl)c3N3CCC4(CCNC4=O)CC3)cc2)cn1 | COLO 205 | gene expression, microarray, item: TLR3 mRNA | – | concentration not given, 6 h | reference: untreated cells | log2 fold change | 2.53
C=CCN1C[C@H](C(=O)N(CCCN(C)C)C(=O)NCC)C[C@@H]2c3cccc4[nH]cc(c34)C[C@H]21 | H+/organic cation antiporter | cell uptake | hCMEC/D3 | – | – | Vmax | 6030 pmol/min/mg protein
COc1nc(NCc2cn(-c3ccc(C(=O)Nc4ccccc4)cc3)nn2)nc(OC)n1 | calf thymus DNA | DNA damage, Tb3+ fluorescence | – | 24 h | – | limit of quantification | 8.88 nM

Some of these lines once more:
Structure (SMILES) | target or system | test | test system | conditions | how to read | quantity | result
C[C@H]1C[C@@H](N2C(=N)N[C@](C)(c3cccc(Nc4ccc(C5CC5)nc4)c3Cl)CC2=O)CCO1 | human cardiac ion channels | ion current | – | panel other channels | – | IC50 | > 30 µM
C[C@@H]1CC[C@H]2[C@@H](/C1=C/C[C@H]1[C@]3(C)CCC(=O)C(C)(C)O[C@H]3CC[C@]1(C)O)C(C)(C)CC[C@]2(C)O | P-glycoprotein human | inhibitor | KB-C2 | 10 µM, 2 h, added: [3H]-paclitaxel | reference: untreated | intracellular paclitaxel accumulation | 2.36 fold
CC(C)n1cc(C(C)(C)C)nc1CN1CCN(Cc2nc(C(C)(C)C)cn2C(C)C)CCN(Cc2nc(C(C)(C)C)cn2C(C)C)CC1 | Zn2+ | potentiometric titration | – | pH 7.4, ligand and metal 2 mM | – | pZn | 5.5
CCN1CCC(CCNCc2cc3cc(-c4ccccc4)ccc3nc2SCc2ccccc2)CC1 | electron transport chain | proton pumping, ACMA quenching | Pseudomonas aeruginosa inverted membrane vesicles | 2 µg/mL, added: NADH | – | inhibition | 6%
CC(CN(C)C)CN1c2ccccc2CCc2ccccc21 (stereo not shown) | H+/organic cation antiporter | cell uptake | hCMEC/D3 | – | – | Vmax | 2120 pmol/min/mg protein
